# Experimental data of several laboratories.
# Values joined by “and” are separate records of one study, mostly repeats; a detail may differ. ± gives the spread as reported.
# Protein AF-9 with DOT1L: Protein AF-9, with DOT1L (Homo sapiens, UniProt P42568)
# Sequence of UniProt P42568 (whole entry, looked up): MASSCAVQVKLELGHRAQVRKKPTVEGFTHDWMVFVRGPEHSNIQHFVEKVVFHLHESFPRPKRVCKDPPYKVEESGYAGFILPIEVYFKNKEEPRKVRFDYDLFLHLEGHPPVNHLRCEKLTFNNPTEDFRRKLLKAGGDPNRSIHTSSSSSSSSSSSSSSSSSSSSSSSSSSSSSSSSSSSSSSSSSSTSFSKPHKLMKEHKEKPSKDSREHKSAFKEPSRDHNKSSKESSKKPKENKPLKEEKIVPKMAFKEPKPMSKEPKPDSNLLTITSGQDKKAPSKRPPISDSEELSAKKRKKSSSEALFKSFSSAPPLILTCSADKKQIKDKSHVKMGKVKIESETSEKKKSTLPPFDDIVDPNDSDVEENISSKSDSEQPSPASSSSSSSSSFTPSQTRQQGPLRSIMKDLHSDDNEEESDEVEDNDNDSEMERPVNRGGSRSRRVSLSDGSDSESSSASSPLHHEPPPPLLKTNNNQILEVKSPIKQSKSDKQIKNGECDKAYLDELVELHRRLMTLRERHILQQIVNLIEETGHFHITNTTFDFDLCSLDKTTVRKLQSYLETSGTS
# BRD9: Bromodomain-containing protein 9 (BRD9, Homo sapiens, UniProt Q9H8M2)
# Sequence of UniProt Q9H8M2 (whole entry, looked up): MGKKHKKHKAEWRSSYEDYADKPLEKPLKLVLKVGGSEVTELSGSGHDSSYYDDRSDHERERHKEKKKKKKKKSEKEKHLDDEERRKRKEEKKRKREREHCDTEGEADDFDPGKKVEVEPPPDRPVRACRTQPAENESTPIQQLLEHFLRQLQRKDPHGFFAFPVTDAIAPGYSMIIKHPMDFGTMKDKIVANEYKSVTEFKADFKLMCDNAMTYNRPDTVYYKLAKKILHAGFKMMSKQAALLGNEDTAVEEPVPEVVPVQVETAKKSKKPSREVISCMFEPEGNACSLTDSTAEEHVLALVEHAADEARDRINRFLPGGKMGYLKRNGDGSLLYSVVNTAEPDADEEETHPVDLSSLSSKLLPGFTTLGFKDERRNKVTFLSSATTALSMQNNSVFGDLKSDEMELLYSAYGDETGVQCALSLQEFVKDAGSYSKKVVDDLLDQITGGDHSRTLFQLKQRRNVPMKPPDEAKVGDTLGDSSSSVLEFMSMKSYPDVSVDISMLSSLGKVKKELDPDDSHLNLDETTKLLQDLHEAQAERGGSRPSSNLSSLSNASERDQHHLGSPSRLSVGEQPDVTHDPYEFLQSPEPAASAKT
# CSNK1D: Casein kinase I isoform delta (CSNK1D, Homo sapiens, UniProt P48730)
# Sequence of UniProt P48730 (whole entry, looked up): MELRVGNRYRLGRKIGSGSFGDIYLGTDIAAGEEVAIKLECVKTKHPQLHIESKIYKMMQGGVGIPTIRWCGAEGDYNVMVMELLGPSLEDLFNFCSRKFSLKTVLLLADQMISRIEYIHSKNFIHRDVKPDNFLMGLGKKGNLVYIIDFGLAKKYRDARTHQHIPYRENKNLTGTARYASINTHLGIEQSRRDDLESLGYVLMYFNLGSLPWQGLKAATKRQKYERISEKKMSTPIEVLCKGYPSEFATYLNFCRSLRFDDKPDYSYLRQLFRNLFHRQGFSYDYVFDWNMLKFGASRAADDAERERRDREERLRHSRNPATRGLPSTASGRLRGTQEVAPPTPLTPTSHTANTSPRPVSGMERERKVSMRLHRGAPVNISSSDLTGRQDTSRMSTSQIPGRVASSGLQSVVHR
# AR: Androgen receptor (AR, Homo sapiens, UniProt P10275)
# Sequence of UniProt P10275 (whole entry, looked up): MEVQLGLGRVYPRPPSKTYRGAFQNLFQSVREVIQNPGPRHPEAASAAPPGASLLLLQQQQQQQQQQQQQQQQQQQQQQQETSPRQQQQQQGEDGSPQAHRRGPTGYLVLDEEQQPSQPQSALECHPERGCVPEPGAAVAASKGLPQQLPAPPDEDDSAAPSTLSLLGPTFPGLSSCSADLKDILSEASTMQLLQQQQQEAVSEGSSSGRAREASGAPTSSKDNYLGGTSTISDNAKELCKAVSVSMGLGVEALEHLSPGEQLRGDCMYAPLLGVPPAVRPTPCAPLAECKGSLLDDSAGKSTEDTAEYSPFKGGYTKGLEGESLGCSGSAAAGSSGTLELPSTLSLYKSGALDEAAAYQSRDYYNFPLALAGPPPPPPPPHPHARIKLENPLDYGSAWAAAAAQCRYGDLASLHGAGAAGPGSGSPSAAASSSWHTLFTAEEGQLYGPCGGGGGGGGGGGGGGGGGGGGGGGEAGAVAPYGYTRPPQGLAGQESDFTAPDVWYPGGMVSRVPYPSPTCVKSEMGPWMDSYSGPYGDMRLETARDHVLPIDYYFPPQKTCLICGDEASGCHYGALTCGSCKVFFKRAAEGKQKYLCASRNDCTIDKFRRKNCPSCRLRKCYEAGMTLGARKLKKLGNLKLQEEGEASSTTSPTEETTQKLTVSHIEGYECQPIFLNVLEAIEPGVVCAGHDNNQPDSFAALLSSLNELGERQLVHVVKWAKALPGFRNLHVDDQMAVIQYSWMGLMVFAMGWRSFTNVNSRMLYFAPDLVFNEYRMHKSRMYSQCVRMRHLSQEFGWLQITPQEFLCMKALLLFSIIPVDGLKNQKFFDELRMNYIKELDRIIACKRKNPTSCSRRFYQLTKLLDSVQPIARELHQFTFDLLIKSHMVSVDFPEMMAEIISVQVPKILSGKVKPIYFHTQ
# CD274: Programmed cell death 1 ligand 1 (CD274, Homo sapiens, UniProt Q9NZQ7)
# Sequence of UniProt Q9NZQ7 (whole entry, looked up): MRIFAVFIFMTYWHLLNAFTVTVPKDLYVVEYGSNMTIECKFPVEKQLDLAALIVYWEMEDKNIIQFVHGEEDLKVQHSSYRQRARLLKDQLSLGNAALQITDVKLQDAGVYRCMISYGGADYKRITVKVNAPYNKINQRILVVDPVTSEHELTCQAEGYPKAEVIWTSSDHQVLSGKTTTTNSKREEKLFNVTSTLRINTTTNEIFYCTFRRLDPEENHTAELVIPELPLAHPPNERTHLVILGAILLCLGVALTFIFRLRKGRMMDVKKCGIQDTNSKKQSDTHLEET
# A-type voltage-gated potassium channel KCND2: A-type voltage-gated potassium channel KCND2 (Rattus norvegicus, UniProt Q63881)
# Sequence of UniProt Q63881 (whole entry, looked up): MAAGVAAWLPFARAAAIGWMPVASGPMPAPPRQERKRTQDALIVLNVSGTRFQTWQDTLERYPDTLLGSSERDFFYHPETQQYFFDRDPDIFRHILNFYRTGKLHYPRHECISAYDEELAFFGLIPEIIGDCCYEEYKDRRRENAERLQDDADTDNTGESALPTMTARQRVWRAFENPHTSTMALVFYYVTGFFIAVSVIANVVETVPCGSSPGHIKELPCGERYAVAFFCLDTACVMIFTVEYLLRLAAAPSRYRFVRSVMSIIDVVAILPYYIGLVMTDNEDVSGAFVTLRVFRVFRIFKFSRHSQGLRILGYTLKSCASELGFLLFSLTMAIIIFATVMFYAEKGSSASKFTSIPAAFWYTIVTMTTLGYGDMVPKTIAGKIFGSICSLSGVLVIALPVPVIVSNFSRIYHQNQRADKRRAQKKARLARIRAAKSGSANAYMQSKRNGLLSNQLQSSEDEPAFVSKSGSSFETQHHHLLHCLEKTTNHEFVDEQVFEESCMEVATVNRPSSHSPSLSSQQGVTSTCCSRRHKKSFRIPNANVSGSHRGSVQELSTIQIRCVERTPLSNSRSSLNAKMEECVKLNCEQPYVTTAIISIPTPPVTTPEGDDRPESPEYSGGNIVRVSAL
# LRRC8C Y126F part LRRC8A IL1 chimera: Volume-regulated anion channel subunit LRRC8C, part LRRC8A IL1 chimera (LRRC8C, Homo sapiens, UniProt Q8TDW0, Y126F)
# AXL: Tyrosine-protein kinase receptor UFO (AXL, Homo sapiens, UniProt P30530)
# Sequence of UniProt P30530 (whole entry, looked up): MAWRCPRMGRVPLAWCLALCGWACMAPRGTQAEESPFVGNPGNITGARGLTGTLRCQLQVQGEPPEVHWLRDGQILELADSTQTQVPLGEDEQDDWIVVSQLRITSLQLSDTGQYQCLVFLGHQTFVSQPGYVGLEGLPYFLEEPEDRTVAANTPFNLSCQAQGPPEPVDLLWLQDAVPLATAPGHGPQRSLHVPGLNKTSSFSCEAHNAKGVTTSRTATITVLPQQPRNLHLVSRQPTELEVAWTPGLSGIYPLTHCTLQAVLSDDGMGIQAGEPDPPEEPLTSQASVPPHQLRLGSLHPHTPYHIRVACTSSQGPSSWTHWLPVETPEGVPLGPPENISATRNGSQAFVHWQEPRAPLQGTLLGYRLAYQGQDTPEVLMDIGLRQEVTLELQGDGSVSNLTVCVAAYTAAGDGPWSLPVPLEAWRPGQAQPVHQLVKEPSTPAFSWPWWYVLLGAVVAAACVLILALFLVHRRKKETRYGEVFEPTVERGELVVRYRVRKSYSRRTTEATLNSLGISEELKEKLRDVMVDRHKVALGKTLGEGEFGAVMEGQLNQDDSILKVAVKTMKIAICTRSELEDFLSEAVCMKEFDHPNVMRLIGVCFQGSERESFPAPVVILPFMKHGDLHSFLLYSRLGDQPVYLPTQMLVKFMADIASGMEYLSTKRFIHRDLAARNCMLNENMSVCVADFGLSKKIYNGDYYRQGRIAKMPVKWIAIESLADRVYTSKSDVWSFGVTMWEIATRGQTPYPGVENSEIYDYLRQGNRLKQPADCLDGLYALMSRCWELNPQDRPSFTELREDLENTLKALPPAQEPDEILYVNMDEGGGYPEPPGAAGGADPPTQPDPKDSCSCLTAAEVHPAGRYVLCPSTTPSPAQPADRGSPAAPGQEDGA
# Sequence of UniProt Q13336 (whole entry, looked up): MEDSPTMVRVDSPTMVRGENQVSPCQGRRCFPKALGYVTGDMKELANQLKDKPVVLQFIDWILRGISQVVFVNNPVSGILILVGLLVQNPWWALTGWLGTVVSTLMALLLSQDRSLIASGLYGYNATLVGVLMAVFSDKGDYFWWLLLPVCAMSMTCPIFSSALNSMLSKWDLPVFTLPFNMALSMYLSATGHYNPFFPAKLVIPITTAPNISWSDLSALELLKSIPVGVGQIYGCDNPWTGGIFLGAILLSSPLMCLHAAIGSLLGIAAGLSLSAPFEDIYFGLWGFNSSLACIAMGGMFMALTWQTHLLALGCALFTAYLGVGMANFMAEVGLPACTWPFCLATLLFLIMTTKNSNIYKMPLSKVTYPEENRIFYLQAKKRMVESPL
Structure (SMILES),target or system,assay,test system,conditions,quantity,result
CC(C)Oc1ccc(-c2ccc3ncc(OCC4CCNCC4)nc3c2)cc1,Protein AF-9 with DOT1L,"DOT1L binding, AlphaLISA",,10 µM,inhibition,0 to 21%
Cn1cncc1C1=CN(c2ncnc3[nH]cnc23)CCS1,RAF1 (human),"kinase activity, inhibitor, radiometric kinase",,2 µM,inhibition,47%
COc1cc(-c2cc(C(C)=O)n3ccccc23)cc(OC)c1CN1CC(O)C1,BRD9,AlphaScreen,,1 µM,inhibition,95.1%
NC(=O)c1ccc(-c2nc(-c3ccc4c(c3)OCO4)c(-c3ccccn3)[nH]2)cc1,CSNK1D,inhibitor,,1 µM,inhibition,37%
Cc1nn(-c2nc3c(F)cc(F)cc3s2)c(O)c1C(c1ccc(C(F)(F)F)cc1)c1c(C)nn(-c2nc3c(F)cc(F)cc3s2)c1O,"Cyclic GMP-AMP synthase, catalytic domain; with DNA (CGAS, Homo sapiens, UniProt Q8N884)","cGAS phase separation, inhibitor",,100 µM,inhibition,101%
CCNNC(=O)c1ccc(CN(CC(=O)NCc2ccccc2)C(=O)c2ccc(N(C)C)cc2)cc1,"MMP1 (Homo sapiens, UniProt P03956)",enzyme activity,,10 µM,inhibition,no inhibition
NC(=O)[C@H](CCCN=C(N)CF)NC(=O)c1ccccc1,HBL-1,,,"1 µM, 120 h",viability,110%
c1ccc(Oc2ccc(-c3cc4ncc(OCC5CCNCC5)nc4cc3-c3ccc(Oc4ccccc4)cc3)cc2)cc1,Protein AF-9 with DOT1L,"DOT1L binding, AlphaLISA",,10 µM,inhibition,27%
CC(=O)c1cc(-c2ccccn2)c2ccccn12,BRD9,AlphaScreen,,1 µM,inhibition,85.4%
NC/C(=C\F)COc1cccc(Cn2c(=S)[nH]c(=O)c3[nH]cnc32)c1,AR,"radioligand binding, measured: testosterone binding",,10 µM,inhibition,< 50%
OCCCN1CC[C@@H]2C[C@H]1c1cc(-c3ccc(C(F)(F)F)cc3)ccc12,"ADRA1B (Homo sapiens, UniProt P35368)","radioligand binding, PDSP competition binding",,10 µM,inhibition,< 50%
CCCCCCCCCCCCNC(=S)NCCCC[C@H](NC(=O)OCc1ccccc1)C(=O)N[C@@H](Cc1c[nH]c2ccccc12)C(=O)N[C@@H](CC(N)=O)C(N)=O,"SIRT3 (Homo sapiens, UniProt Q9NTG7)","enzyme activity, inhibitor",,10 µM,inhibition,< 5%
COc1ccc(Cl)cc1NC(=O)CN1C(=O)N[C@](C)(Cc2ccc(OC)c(OC)c2)C1=O,"uncharacterized protein (Erigeron canadensis, UniProt A0A8M0FGR5)",enzyme activity,,100 mg/L,inhibition,> 30%
O=C(CCc1ccc(O)cc1)c1c(O)cc(O)cc1O,"Urea transporter 1 (Homo sapiens, UniProt Q13336)",urea transport,human cells,"500 µM, together with: [14C]urea",inhibition,97.7%
Nc1nc2c(ncn2[C@@H]2O[C@H](COP(=O)(O)OP(=O)(O)OP(=O)(O)O)[C@@H](O)[C@H]2O)c(=O)[nH]1,"TGM2 (Homo sapiens, UniProt P21980)","enzyme activity, inhibitor, continuous fluorescence",,"50 µM, 6 µg/mL enzyme, 10 mM Ca2+",inhibition,≤ 25%
CC[C@H](NCc1ccc(-c2cccc(-c3cccc(/C=C/C(=O)c4ccc(OC)cc4)c3)c2C)nc1OC)C(N)=O,CD274,"binding, inhibitor, HTRF",,1 µM,inhibition,10.4 ± 3.2%
[2H]c1cc(C)c(NC(=O)c2cnc(Nc3cc(N4CCCCC4)nc(C)n3)s2)c(Cl)c1,"RET (Homo sapiens, UniProt P07949, Y791F)",,,0.01 µM,inhibition,< 30%
CCN(CC)c1ccc(Nc2ccc3ncc(OCC4CCNCC4)nc3c2)cc1,Protein AF-9 with DOT1L,"DOT1L binding, AlphaLISA",,10 µM,inhibition,71%
CN(C(=O)n1cnc(-c2ccc[n+]([O-])c2)c1)C1CCCCC1,AR,,,10 µM,inhibition,17.3%
CN1CCN(c2cc(-c3ccncc3)c(-c3ccc4ccccc4c3)nn2)CC1,"FPR1 (Homo sapiens, UniProt P21462)","antagonist, FLIPR",,10 µM,inhibition,-0.5%
COc1cc(-c2cc(C(C)=O)n3ccccc23)cc(OC)c1CN(C)C,BRD9,AlphaScreen,,1 µM,inhibition,95.7%
CC(C)c1ccc(Oc2ccc3ncc(OCC4CCNCC4)nc3c2)cc1,Protein AF-9 with DOT1L,"DOT1L binding, AlphaLISA",,10 µM,inhibition,2 to 16%
COc1cccc(-c2cc(C(C)=O)n3ccccc23)c1,BRD9,AlphaScreen,,1 µM,inhibition,86.1%
Cc1c(COc2ccc(CN3CCCCC3C(=O)NCCCCCCNC(=O)CN(C)CCCC34CCC(c5ccccc53)c3ccccc34)cc2Br)cccc1-c1ccccc1 (stereo not drawn),CD274,"binding, inhibitor, HTRF",,1 µM,inhibition,14.1 ± 1.1%
CCNCc1cnn(-c2ccc(-n3ccc(Cl)c(Cl)c3=O)cc2)c1C(F)(F)F,"Trpv1 (Rattus norvegicus, UniProt O35433)","ion current, inhibitor, whole-cell patch clamp",,"10 µM, together with: capsaicin-activated",inhibition,no inhibition
Nc1ncnc2c1ncn2C1OC(CSCCNCc2cccc(-c3ccccc3)c2)C(O)C1O (stereo not drawn),"DNA methyltransferase CcrM (ccrMIM, Caulobacter vibrioides, UniProt P0CAW2)",,,10 µM,inhibition,47%
COc1cc(OC)cc(-c2cc(C(C)=O)n3ccccc23)c1,BRD9,AlphaScreen,,1 µM,inhibition,> 90%
c1ccc(Nc2ccc3ncc(OCC4CCNCC4)nc3c2)cc1,Protein AF-9 with DOT1L,"DOT1L binding, AlphaLISA",,10 µM,inhibition,33%
COc1cc(-c2cc(C(C)=O)n3ccccc23)c(OC)cc1CN1CCOCC1,BRD9,AlphaScreen,,1 µM,inhibition,93.5%
c1cc(N2CCNCC2)ccc1-c1ccc2ncc(OCC3CCNCC3)nc2c1,Protein AF-9 with DOT1L,"DOT1L binding, AlphaLISA",,10 µM,inhibition,16%
CCN(CC)c1ccc(C2Nc3ccc(C(=O)c4ccccc4)cc3NC3=C2C(=O)CC(C)(C)C3)cc1 (stereo not drawn),GABAA receptor,binding,,10 µM,inhibition,36%
CCCC[C@H]1C(=O)N(C)[C@@H](CCCC)C(=O)N[C@@H](CCCNC(=N)N)C(=O)N[C@H](C(=O)NCC(N)=O)CSCC(=O)N[C@@H](Cc2ccccc2)C(=O)N(C)[C@@H](C)C(=O)N[C@@H](CC(N)=O)C(=O)N2CCC[C@H]2C(=O)N[C@@H](Cc2c[nH]cn2)C(=O)N[C@@H](CC(C)C)C(=O)N[C@@H](CO)C(=O)N[C@@H](Cc2c[nH]c3ccccc23)C(=O)N[C@@H](CO)C(=O)N[C@@H](Cc2c[nH]c3ccccc23)C(=O)N1C,"Programmed cell death 1 ligand 1, with PD-1 (CD274, Homo sapiens, UniProt Q9NZQ7)","PD-1/PD-L1 binding, ELISA",,10 µM,inhibition,97.6 ± 0.6%
COc1cc(-c2cc(C(C)=O)n3ccccc23)c(OC)cc1CN1CC(O)C1,BRD9,AlphaScreen,,1 µM,inhibition,94.5%
COc1ccc(-n2nc(C)c3conc3c2=O)cc1,GABAA receptor,"binding, radioligand displacement",,"concentration not given, together with: muscimol radioligand",inhibition,-21.5%
CC(C)c1noc2ncc(C(=O)c3ccccc3O)cc12,A-type voltage-gated potassium channel KCND2,"ion current, whole-cell patch-clamp",,"10 µM, rKv4.2",inhibition,14.3%
COc1ccc(C(=O)/C=C/c2cccc(-c3cccc(-c4ccc(CNC(CO)CO)c(OC)n4)c3C)c2)cc1,CD274,"binding, inhibitor, HTRF",,1 µM,inhibition,10.1 ± 1.1%
O=C(Nc1cccc2c(=O)cc(-c3nnn[nH]3)oc12)c1ccc(OCCCCc2ccccc2)cc1,LRRC8C Y126F part LRRC8A IL1 chimera,"ion current, inhibitor, whole-cell patch clamp",HCT LRRC8-/- cells,"1 µM, +100 mV",inhibition,75.2% and 80.6% and 81.3% and 82%
COc1cccc(F)c1Cn1cnc(-c2ccncc2)c1-c1ccc(F)cc1,CSNK1D,inhibitor,,1 µM,inhibition,3%
CC[C@@H]1[C@H](F)C(=O)N[C@@H]1COc1nccc2cc(C(N)=O)c(OC)cc12,AXL,"ATP-site probe binding, inhibitor, ActivX ATP probe profiling",THP-1 cell lysate,"0.01 mM, activation loop site",inhibition,0.7%
O=C(c1ccccn1)N1CC(=O)N2[C@@H](CO)[C@@H](c3ccc(C#Cc4ccccc4)cc3)[C@@H]2C1,"IDE (Homo sapiens, UniProt P14735)","enzyme activity, inhibitor, fluorogenic kinetic",,together with: Mca-RPPGFSAFK(Dnp)-OH substrate,EC50,5.2 µM
COc1cc(C(=O)NS(=O)(=O)c2ccccc2C)ccc1Cc1cn(C)c2ccc(NC(=O)OC3CCCC3)cc12,LRRC8C Y126F part LRRC8A IL1 chimera,"ion current, inhibitor, whole-cell patch clamp",HCT LRRC8-/- cells,"0.03 µM, +100 mV",inhibition,20.3% and -0.81% and 17.2% and 15.7% and 7.58% and 20.1%
Cn1cc(-c2cnc3ccc(NC(=O)Nc4ccc(F)c(Br)c4)cc3n2)cn1,"MAP3K1 (Homo sapiens, UniProt Q13233)","kinase binding, KiNativ profiling, measured: Lys2 peptide",PANC-1 lysate,1.25 µM,inhibition,30%
Cc1ccc(C(=O)Nc2ccc3ccccc3c2)o1,A-type voltage-gated potassium channel KCND2,"ion current, whole-cell patch-clamp",,"10 µM, rKv4.2",inhibition,7.12%
COc1cc2nccc(Oc3ccc(NC(=O)c4cc5c(n(-c6ccccc6)c4=O)CCCC5=O)nc3)c2cc1OC,AXL,plasma inhibitory activity,human patients,6 mg/day,inhibition,67 to 92%
C=C1C(=O)O[C@@H](CCC)[C@@H]1C(=O)O (racemic),HBL-1,,,"1 µM, 120 h",viability,99.5%

# Repeated from above:
Structure (SMILES),target or system,assay,test system,conditions,quantity,result
CC[C@H](NCc1ccc(-c2cccc(-c3cccc(/C=C/C(=O)c4ccc(OC)cc4)c3)c2C)nc1OC)C(N)=O,CD274,"binding, inhibitor, HTRF",,1 µM,inhibition,10.4 ± 3.2%
COc1cc(OC)cc(-c2cc(C(C)=O)n3ccccc23)c1,BRD9,AlphaScreen,,1 µM,inhibition,> 90%
Nc1ncnc2c1ncn2C1OC(CSCCNCc2cccc(-c3ccccc3)c2)C(O)C1O (stereo not drawn),"DNA methyltransferase CcrM (ccrMIM, Caulobacter vibrioides, UniProt P0CAW2)",,,10 µM,inhibition,47%
CN(C(=O)n1cnc(-c2ccc[n+]([O-])c2)c1)C1CCCCC1,AR,,,10 µM,inhibition,17.3%
COc1cc(-c2cc(C(C)=O)n3ccccc23)c(OC)cc1CN1CCOCC1,BRD9,AlphaScreen,,1 µM,inhibition,93.5%
CCNCc1cnn(-c2ccc(-n3ccc(Cl)c(Cl)c3=O)cc2)c1C(F)(F)F,"Trpv1 (Rattus norvegicus, UniProt O35433)","ion current, inhibitor, whole-cell patch clamp",,"10 µM, together with: capsaicin-activated",inhibition,no inhibition
